{"data": "Measurements collected from several papers", "note": "Lines come from different studies, so protocols differ. ± gives the spread as reported."}
{"SMILES": "N#CCC1CCN(c2nc(Nc3ccc(N4CCC(O)CC4)cc3)c3c(=O)[nH]ncc3n2)CC1", "system": "human, plasma", "conditions": "oral, 20 mg once daily, day 15", "AUC(0-24 h)": "850 ng·h/mL"}
{"SMILES": "CC(C)(Sc1ccncc1-c1ccc(C#N)c2ccccc12)C(=O)O", "system": "human, plasma", "conditions": "oral, 5 mg once daily, geometric mean, added: febuxostat 20 mg", "AUC(0-24 h)": "106 ng·h/mL"}
{"SMILES": "Cc1cc(C)c(CNC(=O)c2cc(Cl)c3c(c2C)O[C@@](C)([C@H]2CC[C@H](N(C)C)CC2)O3)c(=O)[nH]1", "test": "refers to: total radioactivity", "system": "human male, plasma", "conditions": "oral, 200 mg", "AUC(0-24 h)": "18700 ng eq. ·h/mL"}
{"SMILES": "Cn1nc2c(=O)n(C3CC3)cnc2c1[C@](O)(c1cnc(C(F)(F)F)c(Cl)c1)C(F)(F)F", "system": "humanized SCID mice, blood", "conditions": "3 mg/kg once daily, 6 days, infected", "AUC(0-24 h)": "19.3 µM·h"}
{"SMILES": "CC1=C(c2cccc(O)c2)[C@H](c2ccc(OCCN3CC(CF)C3)cc2)Oc2ccc(O)cc21", "system": "human, plasma", "conditions": "oral, 600 mg once daily, steady state geometric mean", "AUC(0-24 h)": "1130 ng·h/mL"}
{"SMILES": "O=C(NO)c1ccc(CN(c2cnccn2)c2cnccn2)cc1", "system": "human patients, plasma", "conditions": "oral, 800 mg twice daily, day 15, approximate mean", "AUC(0-24 h)": "~11000 ng·h/mL"}
{"SMILES": "Cl.[2H]C([2H])([2H])CC(=O)c1cnc(NC(=O)C2CC2)cc1Nc1cccc(-c2ncn(C([2H])([2H])[2H])n2)c1OC", "test": "geometric mean", "system": "human", "conditions": "oral, 25 mg single dose, fasted, liquid", "AUC(0-24 h)": "1870 ng·h/mL"}
{"SMILES": "C#Cc1cccc(Nc2ncnc3cc(OCCOC)c(OCCOC)cc23)c1", "system": "human, plasma", "conditions": "oral, 100 mg daily, day 8, added: docetaxel", "AUC(0-24 h)": "45.5 ± 23.7 µM·h"}
{"SMILES": "Cc1cc2nc3c(=O)[nH]c(=O)nc-3n(C[C@H](O)[C@H](O)[C@H](O)CO)c2cc1C", "system": "human, plasma", "conditions": "oral, dose not given, day 14, added: rosuvastatin", "AUC(0-24 h)": "149 ng·h/mL"}
{"note": "For quick reference, copied from above:"}
{"SMILES": "Cn1nc2c(=O)n(C3CC3)cnc2c1[C@](O)(c1cnc(C(F)(F)F)c(Cl)c1)C(F)(F)F", "system": "humanized SCID mice, blood", "conditions": "3 mg/kg once daily, 6 days, infected", "AUC(0-24 h)": "19.3 µM·h"}
